Published values gathered from unrelated publications.
Numbered parts are unrelated; each lists some results of a single study.

Block 1 — method: protein binding microarray; molecule type: double-stranded DNA, one strand shown; matrix: in vitro; concentration: not given; baseline: not given; reading: higher = stronger binding
Target: Histone acetyltransferase KAT6A, winged helix 2, GST fusion (KAT6A, Homo sapiens, UniProt Q92794, residues 85-181)
Setting: 8-mer, flanks averaged, mean of 2 arrays, mostly near background
Target sequence (chain): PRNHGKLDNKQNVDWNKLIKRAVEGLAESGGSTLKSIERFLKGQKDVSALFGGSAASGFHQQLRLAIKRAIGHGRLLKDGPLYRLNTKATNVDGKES
The E-score of `AATTGTGG` is reported as -0.225.
For `CAACATGA`, the E-score was 0.039.
`ACAGAACT` gave an E-score of -0.0958.
The E-score of `CTTTGGAA` is reported as -0.0298.
`CCCCTCGA` has an E-score of 0.125.
The E-score of `GCACCTCA` is reported as 0.126.
With `CGAGACTC` the E-score was -0.0942.
With `AACATGGG` the E-score was -0.0491.

Block 2 — method: RNA Bind-n-Seq; molecule type: RNA; matrix: in vitro; concentration: 15 pmol; setting: 4-mer, random 30-nt RNA, single round; with: 3 µM DMDA-PatA, 2 mM AMP-PNP; baseline: input library; reading: higher = stronger binding
Target: Eukaryotic initiation factor 4A-I (EIF4A1, Homo sapiens, UniProt P60842, residues 1-406, full length assumed)
Chain of UniProt P60842 (whole entry, looked up): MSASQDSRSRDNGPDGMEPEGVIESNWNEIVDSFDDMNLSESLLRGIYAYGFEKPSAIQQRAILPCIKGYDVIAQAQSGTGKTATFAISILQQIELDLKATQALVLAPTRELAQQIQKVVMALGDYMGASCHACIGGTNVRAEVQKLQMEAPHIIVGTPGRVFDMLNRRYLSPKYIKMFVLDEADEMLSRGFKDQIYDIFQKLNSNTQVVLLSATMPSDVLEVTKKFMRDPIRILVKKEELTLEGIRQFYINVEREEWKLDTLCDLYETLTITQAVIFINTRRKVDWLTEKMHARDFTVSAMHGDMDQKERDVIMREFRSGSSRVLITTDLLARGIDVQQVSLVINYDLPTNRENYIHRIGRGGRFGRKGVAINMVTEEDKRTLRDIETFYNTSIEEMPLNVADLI
For `UACA`, the 4-mer enrichment was 0.969 fold.
For `UGUC`, the 4-mer enrichment was 0.919 fold.
`UUCC` gave a 4-mer enrichment of 0.56 fold.
With `CUGG` the 4-mer enrichment was 0.791 fold.
For `AGUU`, the 4-mer enrichment was 1.31 fold.
With `AACC` the 4-mer enrichment was 0.391 fold.
`ACUU` gave a 4-mer enrichment of 0.903 fold.
The 4-mer enrichment of `CAGG` is reported as 0.635 fold.

Block 3 — method: RNA Bind-n-Seq; molecule type: RNA; matrix: in vitro; concentration: 20 nM; setting: 6-mer, flanks averaged, single round; with: 150 mM LiCl; baseline: input library; reading: higher = stronger binding
Target: TAR DNA-binding protein 43, full length, His tag (TARDBP, Homo sapiens, UniProt Q13148, residues 1-414)
For `GUCCAG`, “6-mer enrichment (R)” read 0.938.
`UAUUCA` — result for “6-mer enrichment (R)”: 0.916.
For `UAUUGG`, “6-mer enrichment (R)” read 1.1.
Under “6-mer enrichment (R)”, `CAUAUG` is recorded as 0.911.
`GACACC`: “6-mer enrichment (R)” 1.14.
`AGUGCU` — result for “6-mer enrichment (R)”: 0.967.
Under “6-mer enrichment (R)”, `UCGCCA` is recorded as 0.861.
Under “6-mer enrichment (R)”, `UCGGUU` is recorded as 0.975.

Mixed results
For `PTDYAKPQY`, binding read “inactive” (HLA class I histocompatibility antigen, A alpha chain, allele A*80:01 (Homo sapiens, UniProt P04439); peptide-MHC binding; peptide; concentration not given).

Some of these lines once more (block 3):
`GACACC`: “6-mer enrichment (R)” 1.14.
`AGUGCU` — result for “6-mer enrichment (R)”: 0.967.
